{"data": "Published values pooled from the literature", "cell line": "BEAS-2B", "method": "MTT", "note": "Lines come from different studies, so protocols differ."}
{"SMILES": "Cc1nc(N(C)c2ccc3c(c2)/C(=C/c2ccccc2)C(=O)N3C)c2ccccc2n1", "test": "cell growth or viability", "quantity": "IC50", "value": "6.63 µM"}
{"SMILES": "Cc1cc(C)[nH]n1", "test": "cell viability", "conditions": "24 h", "quantity": "IC50", "value": "> 800 µM"}
{"SMILES": "COc1ccccc1/C=C1\\C(=O)Nc2ccc(Nc3nc(C)nc4ccccc34)cc21", "test": "cell growth or viability", "quantity": "IC50", "value": "6.84 µM"}
{"SMILES": "Nc1ccc[n+]([Pt-2]([Cl])([Cl])[n+]2cccc(N)c2Cl)c1Cl", "test": "cell viability", "conditions": "48 h", "quantity": "IC25", "value": "50.7 µM"}
{"SMILES": "CCOC(=O)c1cc(C)n(CO)n1", "test": "cell viability", "conditions": "24 h", "quantity": "IC50", "value": "> 800 µM"}
{"SMILES": "CC(=O)[O][Pd][c]1cc(C)ccc1N1N=C(C)C(C)(C)C1=O.CC(=O)[O][Pd][c]1cc(C)ccc1N1N=C(C)C(C)(C)C1=O", "test": "cell growth or viability", "conditions": "24 h", "quantity": "IC50", "value": "> 100 µM"}
{"SMILES": "COc1ccccc1/C=C1\\C(=O)N(C)c2ccc(N(C)c3nc(C)nc4ccccc34)cc21", "test": "cell growth or viability", "quantity": "IC50", "value": "9.76 µM"}
{"SMILES": "CC(=O)[O][Pd][c]1cc(Cl)ccc1N1N=C(C)C(C)(C)C1=O.CC(=O)[O][Pd][c]1cc(Cl)ccc1N1N=C(C)C(C)(C)C1=O", "test": "cell growth or viability", "conditions": "24 h", "quantity": "IC50", "value": "> 100 µM"}
{"SMILES": "Cc1cc(C)n(CO)n1", "test": "cell viability", "conditions": "24 h", "quantity": "IC50", "value": "> 800 µM"}
{"note": "Repeated from above:"}
{"SMILES": "COc1ccccc1/C=C1\\C(=O)Nc2ccc(Nc3nc(C)nc4ccccc34)cc21", "test": "cell growth or viability", "quantity": "IC50", "value": "6.84 µM"}
